Results from different studies.
Parts stem from different laboratories: compare values within a part only.

Set 1
Target: Histone acetyltransferase KAT6A, both winged helices, GST fusion (KAT6A, Homo sapiens, UniProt Q92794, residues 1-181)
Technique: protein binding microarray
Molecule type: double-stranded DNA, one strand shown
Medium: in vitro
Tested at: not given
Notes: 8-mer, flanks averaged, mean of 2 arrays, mostly near background
Relative to: not given
Direction: higher = stronger binding
Construct (chain): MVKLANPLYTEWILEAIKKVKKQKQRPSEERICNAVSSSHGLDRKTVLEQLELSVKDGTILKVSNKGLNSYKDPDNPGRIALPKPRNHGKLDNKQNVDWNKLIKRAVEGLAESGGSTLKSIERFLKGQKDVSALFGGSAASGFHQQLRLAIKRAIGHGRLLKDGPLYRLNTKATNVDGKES
`CTGACATA` has an E-score of -0.102.
For `ATCGGTTC`, the E-score was 0.105.
For `CGTGGCGC`, the E-score was 0.325.
For `TAACATCA`, the E-score was -0.151.
`CCCAGCAG` has an E-score of -0.239.
For `TAGGGTCA`, the E-score was -0.146.

Set 2
Target: Interferon regulatory factor 5, full length, phosphomimetic (IRF5, Homo sapiens, UniProt Q13568-2, residues 1-514, S451D/S453D/S456D/S462D)
Technique: protein-binding microarray
Molecule type: double-stranded DNA, one strand shown
Medium: in vitro
Tested at: 940 nM top
Notes: 60-bp whole probe
With: salmon DNA 0.4 mg/ml
Relative to: random background probes
Direction: higher = stronger binding
Constant ends, left off below: GCCTAGCAC … GTCTTGATTCGCTTGACGCTGCTG
For `TTAGATCTCAGTTTCGATAAGTGCTAG`, “fitted relative affinity” read 7.06 z-score.
Under “fitted relative affinity”, `TCAGTTTTCTCTATTGCACTGTGCTAG` is recorded as 1.93 z-score.
`TTAGGTTTCGTTCTCCTTTAGTGCTAG`: “fitted relative affinity” 10.8 z-score.
`AGTGGAGTTCATTGTCATTTGTGCTAG` — result for “fitted relative affinity”: -0.208 z-score.
Under “fitted relative affinity”, `CACGGTATCCTACTGCTGACGTGCTAG` is recorded as 0.24 z-score.
For `CACGGTATCGACTATCGGGACGTGCTA`, “fitted relative affinity” read 4.57 z-score.

Other studies, line by line
UNK zinc fingers 1-6, GST-SBP tag: RING finger protein unkempt homolog, zinc fingers 1-6, GST-SBP tag (UNK, Homo sapiens, UniProt Q9C0B0, residues 30-357)
Sequence of UniProt Q9C0B0 (30-357, looked up): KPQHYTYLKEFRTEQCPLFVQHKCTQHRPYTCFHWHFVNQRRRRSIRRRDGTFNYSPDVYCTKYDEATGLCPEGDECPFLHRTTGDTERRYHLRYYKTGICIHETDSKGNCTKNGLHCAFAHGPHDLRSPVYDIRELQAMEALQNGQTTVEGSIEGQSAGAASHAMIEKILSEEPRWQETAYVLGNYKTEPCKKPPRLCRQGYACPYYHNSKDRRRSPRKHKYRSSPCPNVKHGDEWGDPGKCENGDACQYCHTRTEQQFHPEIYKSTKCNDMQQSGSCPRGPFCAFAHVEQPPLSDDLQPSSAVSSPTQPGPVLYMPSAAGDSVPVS
`GGGAGUUCUACAGUCCGACGAUCUUUUUUUUAAUUUUUUUUAAAAUUUCAUAUCUUUUCAUUCCACUGUGUAAAGUGCCCGGAAAUUUCCAAUUUGAAAUUUUGCUUUUUCUGGCAUUGGCAAAAAACCAGUAGAAGUGAAUUCAACAGAGGAUUGAGCAUCA` gave a bound/input enrichment of 0.405 ratio (UNK zinc fingers 1-6, GST-SBP tag; RNA Bind-n-Seq; RNA, in vitro; not given, RNA with constant flanks, ends assumed; relative to: input RNA pool, higher = stronger binding).
`PhoQ, residues 284 288 289 292 302 303 NLGVHL` has a fold induction of 5.99 (PhoP, residues 12 14 15 18 19 SQCLL (Escherichia coli, UniProt P23836); Sort-seq, measured: YFP reporter; E. coli; PhoQ-PhoP variant library, with: 10 µM Mg2+; relative to: high Mg2+ state, higher = stronger signaling).
`GGGAGUUCUACAGUCCGACGAUCUUAAUCCCCUUUACUGCUCCCCCACUUCUCAUGGUAAUGACAAAAACUUAUAUCCCCGUCCUAGCUUUCACUCAGAUGGCUUAUGGAGCCAGUUUCCUAGCUUUCUUGGGAGGGAUCAGACAACAGAGGAUUGAGCAUCA` has a bound/input enrichment of 0.28 ratio (UNK zinc fingers 1-6, GST-SBP tag; RNA Bind-n-Seq; RNA, in vitro; not given, RNA with constant flanks, human-mouse chimeric sites, ends assumed; relative to: input RNA pool, higher = stronger binding).
With `GGGAGUUCUACAGUCCGACGAUCAUGGAGAAGGAUUCUCUGCCCCGCUUUGUGCGCUCUGAAUUUUAUAAGGAGUUAAUCAAGUAGUCAUCUGGUCAGGCUUCCAAAAGUUCCUGUGAGUGUUGAGUUACAUCCUUUGUAGCACAACAGAGGAUUGAGCAUCA` the bound/input enrichment was 0.229 ratio (UNK zinc fingers 1-6, GST-SBP tag; RNA Bind-n-Seq; RNA, in vitro; not given, RNA with constant flanks, human-mouse chimeric sites, ends assumed; relative to: input RNA pool, higher = stronger binding).
The bound/input enrichment of `GGGAGUUCUACAGUCCGACGAUCGAGGUCCUGAGGCAGGAAGACAAAGCUGAAGCUAUGUCUGGCCACAUUGAUCAGUUUCUGACCGCAACAUUCAUGCAGCUAAGACUCAUCUACAGCACACACAUGGCAGAUGAGAAGUUGCAACAGAGGAUUGAGCAUCA` is reported as 0.213 ratio (UNK zinc fingers 1-6, GST-SBP tag; RNA Bind-n-Seq; RNA, in vitro; not given, RNA with constant flanks, ends assumed; relative to: input RNA pool, higher = stronger binding).
